Assay results of several laboratories.
± gives the spread as reported. ≈ marks a conversion by molar mass, not a printed value.

OCCn1cc(-c2ccc3c(c2)CC/C3=N\O)c(-c2ccncc2)n1
inhibition (murine hepatitis virus; viral replication, nanoluciferase reporter; DBT; 1 µM, 10 h; reference: DMSO vehicle): 18%

C[C@H](NC(=O)[C@H](CCCNC(=N)N)NC(=O)[C@H](Cc1c[nH]c2ccccc12)NC(=O)[C@H](CCCNC(=N)N)NC(=O)[C@H](Cc1c[nH]c2ccccc12)NC(=O)[C@H](Cc1c[nH]c2ccccc12)NC(=O)[C@H](Cc1c[nH]c2ccccc12)NC(=O)[C@H](CCCNC(=N)N)NC(=O)[C@H](Cc1c[nH]c2ccccc12)NC(=O)[C@@H](N)CCCNC(=N)N)C(N)=O
MIC (Candida albicans; broth microdilution; CGMCC 2.209, RPMI 1640-MOPS; 48 h, 30 °C, with: FeCl3 4 µM): 8 µM (≈ 13.2 µg/mL)

COc1ccc2ccc3oc([N+](=O)[O-])cc3c2c1Br
MIC90 (Enterobacter cloacae; REMA): 0.25 µg/mL (≈ 0.776 µM)

COc1cc(F)c(F)c(Nc2ccc(I)cc2F)c1NS(=O)(=O)C1(C[C@H](O)CO)CC1
metabolic activity (Aspergillus fumigatus; 20 µM; reference: untreated): ≥ 80%

COc1cnc(OC)n2nc(NS(=O)(=O)c3c(OCC(F)F)cccc3C(F)(F)F)nc12
fresh weight inhibition (Eclipta prostrata; greenhouse; postemergence, 150 g ai/ha, 21 days): 93.5 ± 1.64%

COc1cc2oc([N+](=O)[O-])cc2c2ccccc12
MIC90 (Mycobacterium avium subsp. hominissuis; REMA; ATCC 25291): 4 µg/mL (≈ 16.4 µM)

Cn1cnc2c(F)c(Nc3ccc(Br)cc3Cl)c(C(=O)NOCCO)cc21
metabolic activity (Aspergillus fumigatus; 20 µM; reference: untreated): ≥ 80%

Nc1ncnc2c1ncn2[C@@H]1O[C@@H]2COP(=O)(O)O[C@H]3[C@@H](O)[C@H](n4cnc5c(=O)[nH]cnc54)O[C@@H]3COP(=O)(O)O[C@H]2[C@H]1O
fold enrichment (West Nile virus; RNA sequencing, refers to: purinergic signaling leishmaniasis infection R-HSA-9660826; HFF-1 cells; concentration not given, upregulated pathway; reference: WNV-infected untreated cells): 7.08

Cn1cnc2c(F)c(Nc3ccc(Br)cc3Cl)c(C(=O)NOCCO)cc21
inhibition (murine hepatitis virus; viral replication, nanoluciferase reporter; DBT; 1 µM, 10 h; reference: DMSO vehicle): 11%

CO/N=C(\C(=O)N[C@@H]1C(=O)N2C(C(=O)O)=C(CSC(=O)c3ccco3)CS[C@H]12)c1csc(N)n1
MBC (Staphylococcus aureus; CAAS-2019-CAAS-2019-14 clinical blaZ-resistant isolate, PBS): 16 µg/mL

CC(=O)N1CCN(c2ccc(OCC3COC(Cn4ccnc4)(c4ccc(Cl)cc4Cl)O3)cc2)CC1 (stereo not shown)
MIC (Candida parapsilosis; CGMCC 2.399; 48 h, 30 °C): 8 µM (≈ 4.25 µg/mL)

Cc1ccc(NC(=O)Nc2cc(C(F)(F)F)ccc2F)cc1Nc1ccc2c(c1)NC(=O)/C2=C\c1ccc[nH]1
inhibition (murine hepatitis virus; viral replication, nanoluciferase reporter; DBT; 1 µM, 10 h; reference: DMSO vehicle): 51%

C[C@H](NC(=O)[C@H](CCCNC(=N)N)NC(=O)[C@H](Cc1c[nH]c2ccccc12)NC(=O)[C@H](CCCNC(=N)N)NC(=O)[C@H](Cc1c[nH]c2ccccc12)NC(=O)[C@H](Cc1c[nH]c2ccccc12)NC(=O)[C@H](Cc1c[nH]c2ccccc12)NC(=O)[C@H](CCCNC(=N)N)NC(=O)[C@H](Cc1c[nH]c2ccccc12)NC(=O)[C@H](CCCNC(=N)N)NC(=O)CN)C(N)=O
MIC (Candida albicans; CGMCC 2.209; no added salts): 8 µM

Cc1c2c(nn1C)CSCc1cc(n(C)n1)CSc1cc(c3ccccc3c1)OCCCc1c(C(=O)O)n(C)c3c-2c(Cl)ccc13
log2 fold change (Staphylococcus aureus; label-free quantitative proteomics, refers to: IlvC protein; SA113; concentration not given; reference: untreated control): 5.69

Cn1c(=O)ccc2ccc(F)c(CCNC[C@H]3CN(c4cnc5c(n4)NC(=O)CO5)C(=O)O3)c21
MIC50 (Morganella morganii): 0.12 µg/mL (≈ 0.256 µM)

CC(=O)C1=CC[C@H]2[C@@H]3C=CC4=CC(=O)CC[C@]4(C)[C@H]3C[C@@H](O)[C@]12C
IC50 (Leishmania mexicana; parasite growth, Giemsa stain count; C57BL/6 mouse bone marrow-derived macrophages, amastigotes; 48 h): 3.5 µM

COc1c([N+](=O)[O-])oc2ccc3ccccc3c12
MIC90 (Enterobacter cloacae; REMA): > 32 µg/mL

O=C(NCc1ccccc1)c1ccc(S(=O)(=O)NCc2ccccc2)cc1
inhibition (murine hepatitis virus; viral replication, nanoluciferase reporter; DBT; 1 µM; reference: DMSO vehicle): 31%

CC[C@H](C)[C@H](NC(=O)[C@H](C)NC(=O)[C@H](CCCCN)NC(=O)[C@H](CC(C)C)NC(=O)[C@H](C)NC(=O)[C@@H](NC(=O)[C@H](Cc1c[nH]cn1)NC(=O)[C@H](CC(C)C)NC(=O)[C@@H](NC(=O)[C@@H](NC(=O)[C@H](CCCCN)NC(=O)[C@H](C)NC(=O)[C@H](C)NC(=O)[C@H](CO)NC(=O)[C@H](CCCCN)NC(=O)[C@H](Cc1ccccc1)NC(=O)[C@@H](NC(=O)[C@H](CCCCN)NC(=O)[C@H](CC(C)C)NC(=O)[C@H](Cc1ccccc1)NC(=O)[C@H](CO)NC(=O)[C@H](CCCCN)NC(=O)[C@H](Cc1c[nH]c2ccccc12)NC(=O)[C@H](CCCCN)NC(C)=O)[C@@H](C)O)[C@@H](C)O)C(C)C)[C@@H](C)O)C(=O)N[C@@H](CO)C(=O)N[C@@H](CO)C(N)=O
MBC50 (Acinetobacter baumannii; IPM-R; 87 strains): 4 µg/mL (≈ 1.36 µM)

CS(=O)(=O)N1CCCC(NC(=O)[C@H](CCC2CCCCC2)NC(=O)c2ccc(CNC(=O)c3cnc4ccccn34)cc2)C1 (stereo partly shown)
inhibition (murine hepatitis virus; viral replication, nanoluciferase reporter; DBT; 1 µM, 10 h; reference: DMSO vehicle): -11%

CCCC(CCC)C(=O)Nc1ccccc1O
log2 fold change (Artemia franciscana; LC-MS/MS metabolomics, refers to: 1-aminocyclopropanecarboxylic acid; larvae; concentration not given, 48 h, LC10 concentration; reference: vehicle): 0.816

CCOC(=O)c1c(/C(C#N)=C\N)c2ccc(Cl)c(Cl)c2n1C
inhibition (murine hepatitis virus; viral replication, nanoluciferase reporter; DBT; 1 µM; reference: DMSO vehicle): -15%

CC(=O)O[C@H]1C[C@H](O[C@H]2[C@@H](O)C[C@H](O[C@H]3[C@@H](O)C[C@H](O[C@H]4CC[C@@]5(C)[C@H](CC[C@@H]6[C@@H]5C[C@@H](O)[C@]5(C)[C@@H](C7=CC(=O)OC7)CC[C@]65O)C4)O[C@@H]3C)O[C@@H]2C)O[C@H](C)[C@H]1O[C@@H]1O[C@H](CO)[C@@H](O)[C@H](O)[C@H]1O
selectivity index (human alphaherpesvirus 1; K26 GFP, 3D skin equivalent, air-liquid; reference: CC50 over IC50): > 125

CC(=O)Nc1cccc(-n2c(=O)n(C3CC3)c(=O)c3c(Nc4ccc(I)cc4F)n(C)c(=O)c(C)c32)c1
inhibition (murine hepatitis virus; viral replication, nanoluciferase reporter; DBT; 1 µM, 10 h; reference: DMSO vehicle): 1%

CS(=O)(=O)CCCn1c(Cn2c(=O)n(CC(F)(F)F)c3ccncc32)cc2cc(Cl)ccc21
LS mean difference vs placebo (respiratory syncytial virus; RT-qPCR; hospitalized infants 1-24 months, nasal swab; oral, 6, 4.5 or 3 mg/kg daily, day 4, mid dose by age cohort; reference: placebo): -1.13 log10 copies/mL

A few entries again:
CCCC(CCC)C(=O)Nc1ccccc1O
log2 fold change (Artemia franciscana; LC-MS/MS metabolomics, refers to: 1-aminocyclopropanecarboxylic acid; larvae; concentration not given, 48 h, LC10 concentration; reference: vehicle): 0.816

CCOC(=O)c1c(/C(C#N)=C\N)c2ccc(Cl)c(Cl)c2n1C
inhibition (murine hepatitis virus; viral replication, nanoluciferase reporter; DBT; 1 µM; reference: DMSO vehicle): -15%

CC(=O)O[C@H]1C[C@H](O[C@H]2[C@@H](O)C[C@H](O[C@H]3[C@@H](O)C[C@H](O[C@H]4CC[C@@]5(C)[C@H](CC[C@@H]6[C@@H]5C[C@@H](O)[C@]5(C)[C@@H](C7=CC(=O)OC7)CC[C@]65O)C4)O[C@@H]3C)O[C@@H]2C)O[C@H](C)[C@H]1O[C@@H]1O[C@H](CO)[C@@H](O)[C@H](O)[C@H]1O
selectivity index (human alphaherpesvirus 1; K26 GFP, 3D skin equivalent, air-liquid; reference: CC50 over IC50): > 125
